Assay results from different studies.
Values joined by “and” are separate records of one study, mostly repeats; a detail may differ.
Cell line: K562

SMILES	test	test system	conditions	scale	quantity	value
CCN(CC)c1ccc(C=NNC(=O)CSc2nc3ccccc3c(=O)n2Cc2ccc(S(N)(=O)=O)cc2)c(O)c1	–	–	–	–	CC50	> 100000 nM
CCCCCCCCCCCCCC(=O)O[C@@H]1[C@@H](C)[C@@]2(O)[C@@H](C=C(CO)C[C@]3(O)C(=O)C(C)=C[C@@H]23)[C@@H]2C(C)(C)[C@]12OC(C)=O	flow cytometry	–	concentration not given	baseline: cells	S phase cells	16.6% and 16.1%
Cc1n[nH]c(C)c1CSCc1ccccc1	cytotoxicity	–	–	baseline: IC50 HEK293 over IC50 K562	selectivity index	1.5
CC(C)N1CCC(NC2CCN(c3cccc(-c4cc5cc(F)ccc5[nH]4)c3)CC2)CC1	–	–	–	–	GI50	218 nM
COc1c(CCC[P+](c2ccccc2)(c2ccccc2)c2ccccc2)cc2c(c1OC)OCO2.[I-]	SRB	–	–	–	TGI	> -4 log M
COc1c(C)c2c(c(O)c1C/C=C(\C)CCC(=O)O)C(=O)OC2	cell proliferation	blood cancer	–	–	IC50	204 nM
CN1CCN(C2(CNC3CCN(c4cccc(-c5cc6cc(F)ccc6[nH]5)c4)CC3)CCC2)CC1	–	–	–	–	GI50	205 nM
Cn1cncc1C1=CN(c2ncnc3[nH]cnc23)CCS1	–	–	leukemia	–	CC50	> 200000 nM
Cc1n[nH]c(C)c1CSC1CCCCC1	cytotoxicity	–	–	baseline: IC50 HEK293 over IC50 K562	selectivity index	1.5
COc1cc(CCC[P+](c2ccccc2)(c2ccccc2)c2ccccc2)c(OC)c2c1OCO2.[I-]	SRB	–	–	–	LC50	> -4 log M
Nc1ncc(-c2nc(N3CCOCC3)nc(N3CCOCC3)n2)c(C(F)F)n1	–	–	72 h	–	GI50	715 nM
